Measured values of several laboratories.
Every numbered part comes from another study and shows a few of its results, in no order.

Sample 1 — method: EMSA with sequencing; molecule type: double-stranded DNA, one strand shown; sample: in vitro; concentration: 10 and 20 nM; baseline: negative control set to 0; reading: higher = stronger binding
Target: Hepatocyte nuclear factor 3-alpha (Foxa1, Mus musculus, UniProt P35582, residues 1-468, full length assumed)
Setting: whole designed probe, mean of two concentrations, ends assumed
Constant ends, left off below: GTGAGCGGTGCCCATTGATGGGGAAC … TTTCACTGGGATCGTGGGGAC
Target sequence (chain): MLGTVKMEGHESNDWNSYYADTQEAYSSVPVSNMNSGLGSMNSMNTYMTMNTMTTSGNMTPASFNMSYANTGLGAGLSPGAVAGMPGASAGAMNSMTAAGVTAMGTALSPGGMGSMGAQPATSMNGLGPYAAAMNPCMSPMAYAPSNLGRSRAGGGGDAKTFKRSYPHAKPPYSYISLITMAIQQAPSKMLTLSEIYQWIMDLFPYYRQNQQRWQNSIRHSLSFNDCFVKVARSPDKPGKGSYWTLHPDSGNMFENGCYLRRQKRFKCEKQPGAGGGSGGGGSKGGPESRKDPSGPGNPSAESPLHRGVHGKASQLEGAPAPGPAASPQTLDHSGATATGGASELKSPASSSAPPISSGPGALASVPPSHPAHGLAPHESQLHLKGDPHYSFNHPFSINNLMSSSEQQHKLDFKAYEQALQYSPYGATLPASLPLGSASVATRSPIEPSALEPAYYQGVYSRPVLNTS
Sequence | normalised bound fraction [ratio]
CTAATCTCTCTTGGCATCAGGACTTGGTCTTTTGCTGTAGGAGCCACACCAATGGATACCACTCAACCAAAGTGACCCTGGGACAGAGCCAGTATAATCTCGGTCCCTCGTGAGTCAAGCGTCTGGGATAAGTGAACAAACACTGGGCTGAAAACCTGGGACTGGCTGGTTGTTTAAGAGCTATCACCTGCTC | 0.117
TCATTCTACCTGAGGAGTTGATATCTGACAGGTCTACATCTGAATTATTGTAAATGTATGTATTTTCATATGAGCATGCAAAGACATTCAAAGTAAACAAAAATAAATGCTAATTAATTAAATTATAATGCAAAAGCAGGGCTTCCTCACCTACAACTTTGTTAAATTTAGATCTCTTTGGAAAACACATTGT | 0.472
ATCTTCCCCCTCTTCCTTGCCCCACCAGTTCACCTTCCCGGGTTATTTGCAGATAGGAAAATAAATAAAGCCGGCATTCGTTAACCCTCTTCTGGCGCAAACTGCTGTTTGCTCTGGATGAATCATGGTCCTTTGGCGACGCCAGGCTCCGGGAGAGCAAAGCACCGTGTCAGGGCCATGATCCGGGGTGGCC | 0.321
TTTTAAAAGGTTTTTAAAAGAATAAACAATTTTCTTTAAAAAATCATGCTACTGTAACATGATTTTACATAAAGACTGTACATATTGTAACAATGTAATCTAAGAATGATTTACTCTAATGGAAGCCAAGGGTGACAATAAAATCCTCTAAGCTGCAAATGGTGAAGTTATAGGGCCCAACCTGAAAGAGGGG | 0.0921
ATCTTCCCCCTCTTCCTTGCCCCACCAGCTCACCTTCCCGGGTTATTTGCAGATAGGAAAATAAATAAAGCCGCTGCTCTCACCTATAGTCTTGGCGCAAACTGCTGTTTGCTCTGGATGAATCATGGTCCTTTGGCGACGCCAGGCTCCGGGAGAGCAAAGCACCGTGTCAGGGCCATGATCCGGGGTGGCC | 0.371
ACATTCTTTTTGTAATTATTCCAGGTCAAGATAGTGGCCAAAGAGGAAGTTATAAAGCAGACTAGGAAATTCTCCTAAATATATCTCCAACAGAGTAATCTAGAGATTAGGAAACTTGTCCTTCATTCAATTACACCTGGTAAACTTTTTACATTTCCCATTCTATTTTTTGCCTGTGATGTCTAAGTTGAAT | -0.072

Sample 2 — method: Sort-seq; refers to: YFP reporter; sample: E. coli; setting: PhoQ-PhoP variant library; with: 10 µM Mg2+; baseline: high Mg2+ state; reading: higher = stronger signaling
Molecule: PhoQ, residues 284 288 289 292 302 303 SCEHLI
target | fold induction
PhoP, residues 12 14 15 18 19 NFFVT (Escherichia coli, UniProt P23836) | 8.96
PhoP, residues 12 14 15 18 19 VGHWL (Escherichia coli, UniProt P23836) | 14.7
PhoP, residues 12 14 15 18 19 LHHYF (Escherichia coli, UniProt P23836) | 13.2

Sample 3 — method: universal PBM; molecule type: double-stranded DNA, one strand shown; sample: in vitro; concentration: 600 nM; reading: higher = stronger binding
Target: Sal-like protein 4, full length isoform A (SALL4, Homo sapiens, UniProt Q9UJQ4, residues 1-1053)
UniProt Q9UJQ4, sequence (whole entry, looked up): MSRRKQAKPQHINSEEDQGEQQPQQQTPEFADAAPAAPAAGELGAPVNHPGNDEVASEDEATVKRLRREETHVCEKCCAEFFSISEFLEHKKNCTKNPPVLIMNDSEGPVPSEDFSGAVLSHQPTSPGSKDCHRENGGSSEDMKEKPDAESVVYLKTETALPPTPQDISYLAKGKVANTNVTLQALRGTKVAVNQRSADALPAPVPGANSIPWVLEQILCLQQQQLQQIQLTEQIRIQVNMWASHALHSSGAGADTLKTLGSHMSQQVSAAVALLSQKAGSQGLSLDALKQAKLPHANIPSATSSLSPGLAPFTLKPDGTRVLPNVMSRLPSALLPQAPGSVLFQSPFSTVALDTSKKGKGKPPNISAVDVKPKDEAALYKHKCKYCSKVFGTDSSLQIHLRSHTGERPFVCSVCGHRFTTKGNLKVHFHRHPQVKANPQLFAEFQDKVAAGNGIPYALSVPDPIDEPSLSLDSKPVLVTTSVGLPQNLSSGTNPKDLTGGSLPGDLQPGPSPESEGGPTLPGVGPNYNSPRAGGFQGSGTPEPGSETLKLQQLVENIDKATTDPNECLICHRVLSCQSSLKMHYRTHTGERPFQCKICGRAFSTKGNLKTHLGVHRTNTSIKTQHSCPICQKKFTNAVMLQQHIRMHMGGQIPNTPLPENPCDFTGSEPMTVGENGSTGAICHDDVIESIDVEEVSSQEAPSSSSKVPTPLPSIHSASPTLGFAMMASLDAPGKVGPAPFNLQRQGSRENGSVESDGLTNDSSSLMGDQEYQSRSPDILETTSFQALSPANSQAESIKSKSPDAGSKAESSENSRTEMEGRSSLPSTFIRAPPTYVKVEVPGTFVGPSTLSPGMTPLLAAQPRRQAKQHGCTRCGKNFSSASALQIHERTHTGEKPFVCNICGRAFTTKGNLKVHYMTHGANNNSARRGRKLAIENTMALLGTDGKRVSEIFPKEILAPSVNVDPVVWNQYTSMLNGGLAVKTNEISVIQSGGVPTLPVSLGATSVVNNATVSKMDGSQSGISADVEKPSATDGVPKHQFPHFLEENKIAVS
Setting: 8-mer, flanks averaged, mean of replicates
Sequence | E-score
CCTTACTA | 0.129
AGAAAGCG | -0.162
AATTCGAT | 0.206
ACAATTCA | 0.169
ATGTCGCC | -0.0284
CTATAGAA | 0.293
CTTATCCC | 0.0152
ATGTGCGG | -0.138
GGCCCACA | -0.141

Sample 4 — method: protein-binding microarray; molecule type: double-stranded DNA, one strand shown; sample: in vitro; concentration: 250 nM; setting: 60-bp whole probe; with: salmon DNA 0.4 mg/ml; baseline: random background probes; reading: higher = stronger binding; constant ends, left off below: GCCTAGCAC … GTCTTGATTCGCTTGACGCTGCTG
Target: Interferon regulatory factor 5, full length, phosphomimetic (IRF5, Homo sapiens, UniProt Q13568-2, residues 1-514, K96S/S451D/S453D/S456D/S462D)
Sequence | log fluorescence
TTAGGTATCCTTCTGCTTTAGTGCTAG | 0.394 z-score
GTCGGACTGGACTTTCGGGACGTGCTA | 4.54 z-score
TATAGAGTAGTTTTTCAACCAGTGCTA | 0.335 z-score
CAAGTTTCTCCTTTCCAAATGTGCTAG | 3.1 z-score
TTAGGTTTCGGTATCGGCTAGTGCTAG | 10.8 z-score
GACGGACTGGACTTTAGGGACGTGCTA | -0.571 z-score
GACGGACTGGGGATCGGGACGTGCTAG | -0.505 z-score
CTGGAGGTTGGGCAAGGCCCGTGCTAG | -0.76 z-score
TTAGAACTGAGACTGGTTTAGTGCTAG | -0.173 z-score

Repeated from above (sample 3):
Sequence | E-score
CTATAGAA | 0.293
CTTATCCC | 0.0152
ATGTGCGG | -0.138
